Measured values from different studies.
Protocols differ between the studies behind these lines. Values joined by “and” are separate records of one study, mostly repeats; a detail may differ. ± marks the error that the study gave.
USP5: Ubiquitin carboxyl-terminal hydrolase 5 (USP5, Homo sapiens, UniProt P45974)
Sequence of UniProt P45974 (whole entry, looked up): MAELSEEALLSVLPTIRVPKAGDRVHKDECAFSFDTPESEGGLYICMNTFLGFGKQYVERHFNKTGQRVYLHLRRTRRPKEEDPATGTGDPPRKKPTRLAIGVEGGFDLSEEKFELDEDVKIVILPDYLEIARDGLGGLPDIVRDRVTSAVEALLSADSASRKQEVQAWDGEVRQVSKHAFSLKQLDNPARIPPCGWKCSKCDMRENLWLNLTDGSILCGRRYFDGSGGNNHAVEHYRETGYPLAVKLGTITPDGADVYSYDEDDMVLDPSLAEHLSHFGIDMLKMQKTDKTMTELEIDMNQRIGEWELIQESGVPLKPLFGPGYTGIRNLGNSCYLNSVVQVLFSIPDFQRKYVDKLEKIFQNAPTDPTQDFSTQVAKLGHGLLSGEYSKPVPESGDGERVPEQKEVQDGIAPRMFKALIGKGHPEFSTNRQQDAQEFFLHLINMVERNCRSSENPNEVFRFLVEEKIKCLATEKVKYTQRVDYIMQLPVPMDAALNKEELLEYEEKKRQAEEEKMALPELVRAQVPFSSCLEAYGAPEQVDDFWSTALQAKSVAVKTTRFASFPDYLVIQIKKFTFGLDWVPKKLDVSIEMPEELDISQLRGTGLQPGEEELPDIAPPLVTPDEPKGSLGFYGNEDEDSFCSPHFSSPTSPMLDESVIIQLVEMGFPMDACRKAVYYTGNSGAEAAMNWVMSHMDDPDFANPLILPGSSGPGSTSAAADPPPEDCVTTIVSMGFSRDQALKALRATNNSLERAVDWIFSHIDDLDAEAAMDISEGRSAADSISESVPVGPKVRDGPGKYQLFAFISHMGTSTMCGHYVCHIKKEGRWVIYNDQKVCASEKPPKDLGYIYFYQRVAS
CASP9: Caspase-9 (CASP9, Homo sapiens, UniProt P55211)
Sequence of UniProt P55211 (whole entry, looked up): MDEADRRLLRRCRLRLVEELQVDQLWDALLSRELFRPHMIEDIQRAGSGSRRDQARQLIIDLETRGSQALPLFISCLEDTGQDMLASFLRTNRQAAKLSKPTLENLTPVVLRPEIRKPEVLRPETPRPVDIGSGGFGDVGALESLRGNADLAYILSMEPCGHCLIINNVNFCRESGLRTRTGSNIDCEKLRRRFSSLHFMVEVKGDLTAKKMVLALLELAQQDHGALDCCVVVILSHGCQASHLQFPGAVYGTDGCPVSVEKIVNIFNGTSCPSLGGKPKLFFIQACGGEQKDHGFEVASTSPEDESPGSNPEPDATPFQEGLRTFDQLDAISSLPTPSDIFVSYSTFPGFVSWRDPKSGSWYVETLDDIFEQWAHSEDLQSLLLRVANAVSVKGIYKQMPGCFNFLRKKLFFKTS
Lysophospholipase-like protein 1: Lysophospholipase-like protein 1 (Mus musculus, UniProt Q3UFF7)
Sequence of UniProt P46089 (whole entry, looked up): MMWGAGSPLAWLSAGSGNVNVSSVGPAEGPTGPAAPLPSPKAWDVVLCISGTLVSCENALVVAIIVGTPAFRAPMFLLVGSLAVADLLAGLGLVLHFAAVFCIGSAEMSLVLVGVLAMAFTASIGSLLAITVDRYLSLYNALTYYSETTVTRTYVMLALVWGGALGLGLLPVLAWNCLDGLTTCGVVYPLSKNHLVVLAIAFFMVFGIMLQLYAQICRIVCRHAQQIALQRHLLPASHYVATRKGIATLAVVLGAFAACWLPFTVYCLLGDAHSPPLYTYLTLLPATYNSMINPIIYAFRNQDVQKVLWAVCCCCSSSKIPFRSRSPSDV
Sequence of UniProt P28482 (whole entry, looked up): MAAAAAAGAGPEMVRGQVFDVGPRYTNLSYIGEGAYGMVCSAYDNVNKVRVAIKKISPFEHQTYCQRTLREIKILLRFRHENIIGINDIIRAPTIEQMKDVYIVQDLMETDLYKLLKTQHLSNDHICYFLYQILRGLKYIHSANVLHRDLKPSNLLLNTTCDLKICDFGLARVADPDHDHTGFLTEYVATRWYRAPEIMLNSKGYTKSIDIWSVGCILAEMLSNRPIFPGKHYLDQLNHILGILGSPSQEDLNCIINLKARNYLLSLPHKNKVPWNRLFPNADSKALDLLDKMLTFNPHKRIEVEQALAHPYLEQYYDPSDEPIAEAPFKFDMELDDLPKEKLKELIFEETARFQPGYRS
Sequence of UniProt Q9UER7 (whole entry, looked up): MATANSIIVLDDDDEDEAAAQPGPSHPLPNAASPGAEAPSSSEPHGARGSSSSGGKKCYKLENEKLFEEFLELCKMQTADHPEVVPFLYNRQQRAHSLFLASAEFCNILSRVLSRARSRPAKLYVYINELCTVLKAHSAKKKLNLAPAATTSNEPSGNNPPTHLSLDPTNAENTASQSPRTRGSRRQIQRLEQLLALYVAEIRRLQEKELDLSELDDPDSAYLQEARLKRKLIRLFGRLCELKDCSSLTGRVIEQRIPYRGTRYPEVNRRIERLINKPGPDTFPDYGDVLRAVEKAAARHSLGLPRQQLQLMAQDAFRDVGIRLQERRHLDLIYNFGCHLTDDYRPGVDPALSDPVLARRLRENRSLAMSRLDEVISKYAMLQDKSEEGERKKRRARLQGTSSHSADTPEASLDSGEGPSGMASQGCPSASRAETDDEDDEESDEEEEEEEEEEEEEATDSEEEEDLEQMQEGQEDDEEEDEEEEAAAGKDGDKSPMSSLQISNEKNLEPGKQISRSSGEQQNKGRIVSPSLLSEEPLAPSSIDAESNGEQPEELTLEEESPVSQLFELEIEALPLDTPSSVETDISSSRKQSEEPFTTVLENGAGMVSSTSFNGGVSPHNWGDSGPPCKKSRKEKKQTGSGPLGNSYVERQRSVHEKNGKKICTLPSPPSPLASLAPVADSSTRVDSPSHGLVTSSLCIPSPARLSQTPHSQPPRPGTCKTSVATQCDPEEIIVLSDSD
Sequence of UniProt P25999 (whole entry, looked up): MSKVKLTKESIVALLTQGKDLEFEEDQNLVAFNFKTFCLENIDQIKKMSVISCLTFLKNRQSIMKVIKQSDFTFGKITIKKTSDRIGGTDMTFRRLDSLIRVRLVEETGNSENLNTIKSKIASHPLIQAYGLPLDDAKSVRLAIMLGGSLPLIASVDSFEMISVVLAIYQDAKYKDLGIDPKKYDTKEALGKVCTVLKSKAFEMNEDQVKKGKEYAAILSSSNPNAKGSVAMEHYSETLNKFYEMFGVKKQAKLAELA
Sequence of UniProt Q92633 (whole entry, unmodified, looked up): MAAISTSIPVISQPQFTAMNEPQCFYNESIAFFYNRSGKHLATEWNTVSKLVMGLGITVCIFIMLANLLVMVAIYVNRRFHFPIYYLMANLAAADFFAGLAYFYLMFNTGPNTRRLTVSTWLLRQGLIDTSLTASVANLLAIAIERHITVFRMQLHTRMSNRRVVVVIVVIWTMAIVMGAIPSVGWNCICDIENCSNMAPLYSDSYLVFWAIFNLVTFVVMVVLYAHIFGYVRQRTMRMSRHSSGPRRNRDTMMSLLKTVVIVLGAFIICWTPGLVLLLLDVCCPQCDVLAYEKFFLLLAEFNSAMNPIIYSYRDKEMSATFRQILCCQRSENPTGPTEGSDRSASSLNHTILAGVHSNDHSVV
Sequence of UniProt Q3UFF7 (whole entry, looked up): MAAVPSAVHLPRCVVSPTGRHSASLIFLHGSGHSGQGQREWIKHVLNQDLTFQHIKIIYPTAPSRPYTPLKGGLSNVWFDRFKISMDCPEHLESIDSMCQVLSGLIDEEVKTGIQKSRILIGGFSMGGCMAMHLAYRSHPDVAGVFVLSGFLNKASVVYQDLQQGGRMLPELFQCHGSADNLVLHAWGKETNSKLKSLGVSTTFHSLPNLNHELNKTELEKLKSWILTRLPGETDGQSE
Sequence of UniProt Q9NSD7 (whole entry, unmodified, looked up): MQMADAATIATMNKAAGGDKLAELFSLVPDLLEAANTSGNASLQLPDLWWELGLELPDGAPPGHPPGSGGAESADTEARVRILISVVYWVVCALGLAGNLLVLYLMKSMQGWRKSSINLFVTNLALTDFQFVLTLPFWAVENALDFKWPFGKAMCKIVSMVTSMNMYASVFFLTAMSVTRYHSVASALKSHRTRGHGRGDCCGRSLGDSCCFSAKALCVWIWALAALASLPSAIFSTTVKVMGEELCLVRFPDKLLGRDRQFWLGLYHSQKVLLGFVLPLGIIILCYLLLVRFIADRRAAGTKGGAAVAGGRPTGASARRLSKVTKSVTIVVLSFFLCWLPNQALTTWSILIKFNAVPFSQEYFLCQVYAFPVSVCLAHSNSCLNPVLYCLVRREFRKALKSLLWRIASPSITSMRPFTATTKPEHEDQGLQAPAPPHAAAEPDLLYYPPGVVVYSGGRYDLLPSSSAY
Sequence of UniProt Q5MAI5 (whole entry, looked up): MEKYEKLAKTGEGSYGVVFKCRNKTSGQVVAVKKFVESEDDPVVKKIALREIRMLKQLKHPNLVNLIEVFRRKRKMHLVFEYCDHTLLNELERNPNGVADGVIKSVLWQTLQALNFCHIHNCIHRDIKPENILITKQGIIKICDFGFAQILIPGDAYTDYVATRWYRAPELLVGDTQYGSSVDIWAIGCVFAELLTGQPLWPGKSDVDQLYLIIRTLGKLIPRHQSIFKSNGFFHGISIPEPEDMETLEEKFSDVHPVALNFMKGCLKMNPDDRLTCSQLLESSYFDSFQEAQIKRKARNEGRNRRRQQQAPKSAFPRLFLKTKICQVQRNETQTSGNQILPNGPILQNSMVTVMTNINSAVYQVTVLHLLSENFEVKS
Sequence of UniProt Q5MNZ6 (whole entry, looked up): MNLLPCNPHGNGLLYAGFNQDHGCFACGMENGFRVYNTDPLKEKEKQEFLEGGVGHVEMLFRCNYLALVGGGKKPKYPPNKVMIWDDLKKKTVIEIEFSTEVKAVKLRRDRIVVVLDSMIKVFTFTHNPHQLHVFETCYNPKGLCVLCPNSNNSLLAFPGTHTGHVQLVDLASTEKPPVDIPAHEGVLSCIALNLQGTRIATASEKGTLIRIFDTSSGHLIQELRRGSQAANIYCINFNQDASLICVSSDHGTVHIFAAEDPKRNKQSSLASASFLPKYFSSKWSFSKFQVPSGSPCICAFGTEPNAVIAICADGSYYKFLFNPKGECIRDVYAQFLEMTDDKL
Sequence of UniProt P01317 (whole entry, looked up): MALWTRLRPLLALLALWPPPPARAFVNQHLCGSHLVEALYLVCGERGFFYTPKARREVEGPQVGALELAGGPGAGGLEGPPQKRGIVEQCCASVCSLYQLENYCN

CC(=O)N[C@@H](CC(C)C)C(=O)N[C@H](C(=O)N[C@@H](Cc1c[nH]cn1)C(=O)N[C@@H](CC(=O)O)C(=O)COC(=O)c1c(C)cccc1C)C(C)(C)C — kinact/KI (Caspase-4 (CASP4, Homo sapiens, UniProt P49662); enzyme activity, inhibitor): 21500 M⁻¹ s⁻¹
CC(C)N1CCCc2cc(CN)ccc21 — inhibition (USP5; enzyme activity, inhibitor; 17 µM): 66%
O=C1c2sc(-c3ccc(N4CCC(CO)CC4)nc3F)nc2CCN1c1cccnc1 — specific binding (TAR DNA-binding protein 43, aggregated (TARDBP, Homo sapiens, UniProt Q13148); radioligand binding; control brain sarkosyl-insoluble extract; 102.04 nM): 0.302 nM
C#CCOC(=O)[C@]1(C)C=C(C(=O)OC(C)(C)C)C(=O)CC1 — normalized kinase activity (MAPK1 (Homo sapiens, UniProt P28482); enzyme activity, D-SENSOR; 400 µM, single replicate): 0.0254 and 0.0269 and 0.0226
CC[C@H](C)[C@H](NC(=O)[C@H](Cc1ccccc1)NC(=O)[C@H](CCC(=O)O)NC(=O)[C@H](CCCCN)NC(=O)[C@H](C)NC(=O)[C@H](C)NC(=O)[C@H](CCC(N)=O)NC(=O)CNC(=O)[C@H](CCC(=O)O)NC(=O)[C@H](CC(C)C)NC(=O)[C@H](Cc1ccc(O)cc1)NC(=O)C(C)(C)NC(=O)[C@H](CO)NC(=O)C(C)(C)NC(=O)[C@H](CC(=O)O)NC(=O)[C@H](CO)NC(=O)[C@@H](NC(=O)[C@H](Cc1ccccc1)NC(=O)[C@@H](NC(=O)CNC(=O)[C@H](CCC(=O)O)NC(=O)[C@H](C)NC(=O)[C@@H](N)Cc1c[nH]cn1)[C@@H](C)O)[C@@H](C)O)C(=O)N[C@@H](C)C(=O)N[C@@H](Cc1c[nH]c2ccccc12)C(=O)N[C@@H](CC(C)C)C(=O)N[C@H](C(=O)N[C@@H](CCCCN)C(=O)NCC(=O)N[C@@H](CCCNC(=N)N)C(N)=O)C(C)C — efficacy (GLP1R (Homo sapiens, UniProt P43220); β-arrestin-1 recruitment, agonist, BRET; relative to: GLP-1): 94 ± 4%
CCCCCC=CC=C1C(=O)C=CC1CC=CCCCC(=O)O (stereo not shown) — isoTOP-ABPP competition ratio (Tubulin-specific chaperone D (Homo sapiens, UniProt Q9BTW9); competitive isoTOP-ABPP, measured: TBCD cysteine peptide; Ramos soluble proteome; 100 µM, added: iodoacetamide probe; relative to: DMSO over compound-treated, higher = stronger cysteine blockade): 1.7
CC(=O)N[C@@H](CC(C)C)C(=O)N[C@@H](CCC(N)=O)C(=O)N[C@@H](CCC(=O)O)C(=O)N[C@@H](CC(=O)O)C(=O)COC(=O)c1c(C)cccc1C — kinact/KI (CASP9; enzyme activity, inhibitor): 39300 M⁻¹ s⁻¹
CCC(C)C(NC(=O)C(Cc1ccccc1)NC(=O)c1ccc(C(C)(C)C)cc1)C(=O)NC(CC(C)C)C(=O)NC(CCCCN(C)C1CC2CCC1C2)C(=O)NC(CO)C(N)=O (stereo not shown) — selectivity ratio (Chromobox protein homolog 8 (Homo sapiens, UniProt Q9HC52); TR-FRET displacement; relative to: IC50 CBX7 over IC50 CBX8): > 54
CC(=O)N[C@@H](CC(C)C)C(=O)N[C@@H](CCC(=O)O)C(=O)N[C@H](C(=O)N[C@@H](CC(=O)O)C(=O)COC(=O)c1c(C)cccc1C)C(C)C — kinact/KI (CASP9; enzyme activity, inhibitor): 69200 M⁻¹ s⁻¹
Cc1ccc(C)n1-c1ccc(C(=O)O)cc1O — inhibition (USP5; enzyme activity, inhibitor; 17 µM): 19%
CN(C)c1ccc2c(c1)C(=O)N(Cc1ccc(S(N)(=O)=O)cc1)C2=O — fluorescence turn-on (CA2 (Homo sapiens, UniProt P00918); binding; 2 µM, pH 7.2; relative to: without protein): 3.1 ± 0.5 fold
CC[C@H](C)[C@H](NC(=O)[C@H](CC(=O)O)NC(C)=O)C(=O)N[C@H](C(=O)N[C@H](C(=O)N[C@@H](CCCNC(=N)N)C(=O)N[C@@H](Cc1ccc(O)cc1)C(=O)N[C@@H](CC(N)=O)C(=O)NCC(=O)N[C@@H](CCCCN)C(=O)N[C@H](C(=O)N[C@@H](Cc1c[nH]c2ccccc12)C(=O)N[C@@H](Cc1c[nH]c2ccccc12)C(=O)N[C@@H](CCCNC(=N)N)C(=O)O)C(C)C)[C@@H](C)O)[C@@H](C)O — α-helix content (Insulin (INS, Bos taurus, UniProt P01317); circular dichroism; INS-peptide complex; 0 min, initial stage, added: INS 350 µM): 53%
O=C1N/C(=N\c2ccc(Cl)cc2C(=O)O)S/C1=C\c1ccccc1 — reaction rate (DHODH (Homo sapiens, UniProt Q02127); enzyme activity, inhibitor, DCIP reduction; 10 µM; higher = more activity): -11.3 a.u.
Cn1c(=O)n(C2CCC(=O)NC2=O)c2ccc(C3CCN(CC(=O)Nc4cccc(CS(=O)(=O)N5CC[C@H](Nc6cccc(-c7sc(C(=O)O)c(OCC(=O)O)c7Cl)c6)CC5(C)C)c4)CC3)cc21 (stereo partly shown) — BLI binding response (PTPN2 (Homo sapiens, UniProt P17706, E41K/R35E/R43E); degrader, bio-layer interferometry; 250 nM; higher = more binding): 0.596 a.u.
CNC(=O)C[C@H](Cc1ccc(C#N)cc1)NC(=O)c1cc(-c2ccc(CN[C@H](C)c3ccc(C)cc3)o2)ccc1Cl — activity vs control (CDKL4 (Homo sapiens, UniProt Q5MAI5); enzyme activity, inhibitor; 1 µM): 98%
CC(=O)N[C@@H](CCCNC(=N)N)C(=O)N[C@H](C(=O)N[C@@H](CCCCN)C(=O)N[C@@H](CO)C(=O)N[C@@H](CCCNC(=N)N)C(=O)N[C@H](C(=O)N[C@@H](Cc1c[nH]c2ccccc12)C(=O)N[C@@H](C)C(=O)N1Cc2ccccc2C[C@H]1C(N)=O)[C@@H](C)OP(=O)(O)O)[C@@H](C)O — koff (14-3-3 protein epsilon (Homo sapiens, UniProt P62258); binding, SPR): 0.043 s⁻¹
CC(C)Oc1cc(Cl)ccc1CNc1cc(-c2ccccc2)nc2ncnn12 — cAMP luminescence (GPR3 (Homo sapiens, UniProt P46089); cAMP reporter; human cells; 100 nM; higher is more cAMP): 27700 a.u. and 11200 a.u. and 29400 a.u. and 33500 a.u. and 18000 a.u. and 25200 a.u.
Fc1ccc(Nc2nc(NC3CCCCC3)c3cc(C(F)(F)F)ccc3n2)cc1F — maximal inhibition (ADRB2 (Homo sapiens, UniProt P07550, T164V); β-arrestin2 recruitment, antagonist, BRET; mutant T164V; relative to: isoprenaline maximal response): 4.9%
CC[C@H](C)[C@@H]1NC(=O)[C@H](Cc2ccccc2)NC(=O)[C@H](CCC(=O)O)NC(=O)[C@H](CCCNC(=N)N)NC(=O)CNC(=O)[C@@H](NC(=O)[C@H](CC(C)C)NC(=O)[C@H](CCCNC(=N)N)NC(=O)[C@@H](NC(=O)CNC(=O)[C@H](Cc2ccc(O)cc2)NC(=O)[C@@H]2CCCN2C(=O)[C@H](C)NC(=O)[C@H](C)NC(=O)[C@@H](N)CCCNC(=N)N)C(C)C)CSSC[C@@H]2NC(=O)[C@@H](NC(=O)[C@H](CO)NC(=O)[C@H](CO)NC(=O)[C@H](CO)NC(=O)[C@H](CC(C)C)NC(=O)CNC(=O)[C@H](C)NC(=O)[C@H](CC(C)C)NC(=O)[C@@H](NC(=O)[C@@H](N)CC(=O)O)C(C)C)CSSC[C@H](NC(=O)CNC(=O)[C@H](Cc3c[nH]c4ccccc34)NC(=O)[C@H](CCCCN)NC2=O)C(=O)N[C@@H](CO)C(=O)N[C@@H](CCCCN)C(=O)N[C@@H](CO)C(=O)N[C@@H](CCC(=O)O)C(=O)N[C@@H]([C@@H](C)CC)C(=O)N[C@@H](CO)C(=O)N[C@@H](CO)C(=O)N[C@@H](CC(C)C)C(=O)N[C@H](C(=O)O)CSSC[C@@H](C(=O)NCC(=O)NCC(=O)N[C@@H](CO)C(=O)N[C@@H](CCCNC(=N)N)C(=O)N[C@@H](Cc2c[nH]c3ccccc23)C(=O)O)NC(=O)[C@H]([C@@H](C)O)NC(=O)[C@H](Cc2ccccc2)NC(=O)[C@H]([C@@H](C)CC)NC(=O)[C@H](C(C)C)NC(=O)[C@H](C)NC(=O)[C@H](CCCNC(=N)N)NC1=O — Emax (RXFP3 (Homo sapiens, UniProt Q9NSD7, V375A); HEK-293T; relative to: wild type): 87.1 ± 2.4%
CCc1ccc(NS(=O)(=O)c2c(C)[nH]c(C)c2C(=O)N2CCCC2)cc1 — Imax (DRD3 (Homo sapiens, UniProt P35462); β-arrestin recruitment, agonist, PathHunter; relative to: dopamine): 99 ± 3%
CC(=O)N[C@@H](CCC(N)=O)C(=O)N[C@@H](CC(C)C)C(=O)N[C@@H](CCCC(=O)O)C(=O)N1CCC[C@H]1C(=O)N[C@@H](CC(=O)O)C(=O)COC(=O)c1c(C)cccc1C — kinact/KI (CASP9; enzyme activity, inhibitor): 117000 M⁻¹ s⁻¹
CN(C)CCCSC(=S)N1CCN(C(=O)/C=C/c2coc3ccccc3c2=O)CC1 — relative N protein level (Nucleoprotein (N, Tomato spotted wilt virus, UniProt P25999); western blot; NG, 160 min, 25 °C, added: RNA; relative to: 0 min): 0.306 and 0.459 and 0.333
N#CC(=Cc1cn(CC(=O)O)c2ccccc12)c1ccc(F)cc1 — inhibition (USP5; enzyme activity, inhibitor; 17 µM): 0%
[3H]C([3H])([3H])OC1(C2=NCCN2)COc2ccccc2O1 (stereo not shown) — Bmax (Alpha-2C adrenergic receptor (Mus musculus, UniProt Q01337, L10D); radioligand binding; HEK293 membranes; α2c(L10D)-AR mutant): 1.29 ± 0.31 pmol/mg protein
CCCCCCCCCCCCC/C=C/C=O — isoTOP-ABPP competition ratio (WD repeat domain phosphoinositide-interacting protein 3 (WDR45B, Homo sapiens, UniProt Q5MNZ6); competitive isoTOP-ABPP; proteome, soluble, MDA-MB-231; 100 µM, 60 min, added: iodoacetamide probe; relative to: DMSO over compound-treated, higher = stronger cysteine blockade): 1.1
O=C1Nc2ccccc2C1C1(O)C(=O)Nc2ccc(F)cc21 (stereo not shown) — inhibition (USP5; enzyme activity, inhibitor; 17 µM): 4%
N[C@H]1CC[C@H](Nc2nccc(-c3cccnc3Oc3ccc(NC(=O)NC4CC4)c4ccccc34)n2)CC1 — log2 LFQ intensity (Death domain-associated protein 6 (Homo sapiens, UniProt Q9UER7); kinobead competition pulldown; HEK293/HCT116 lysate mixture; 10 µM, 1 h, 4 °C; lower = stronger competition): 21.7 and 21.8 and 21.6
CN(Cc1cc(C2CC2)on1)C(=O)c1cccc(-c2ccc3c(c2)CCO3)c1 — reaction rate (ACSS2 (Homo sapiens, UniProt Q9NR19); enzyme activity, inhibitor, coupled pyrophosphate; 12.5 µM; higher is more activity): 0.00333 a.u.
CC[C@H](NC(=O)[C@H](CC(C)C)NC(C)=O)C(=O)N[C@@H](CCC1CCCCC1)C(=O)N[C@@H](CC(=O)O)C(=O)COC(=O)c1c(C)cccc1C — kinact/KI (CASP9; enzyme activity, inhibitor): 183000 M⁻¹ s⁻¹
CC(=O)Nc1cccc(S(=O)(=O)n2nc(SCc3ccc(Cl)cc3)nc2N)c1 — probe labeling increase (Lysophospholipase-like protein 1; enzyme activity, activator, gel-based ABPP; purified protein; concentration not given, added: FP-rhodamine; relative to: DMSO): 2.8 fold
COc1cc(Nc2nccc(-c3cnn4nc(OC)ccc34)n2)cc(C(F)(F)F)c1 — remaining binding (EGFR (Homo sapiens, UniProt P00533, L858R); binding; 1 µM): 100%
Nc1nc(NCc2ccc(Cl)cc2)nn1S(=O)(=O)c1cccc2cccnc12 — probe labeling increase (Lysophospholipase-like protein 1; enzyme activity, activator, gel-based ABPP; purified protein; concentration not given, added: FP-rhodamine; relative to: DMSO): 1.1 fold
C=CC(=O)N1CCCC(n2c(=O)c3ncccc3n(Cc3ccc(Oc4ccccc4)cc3)c2=O)C1 (stereo not shown) — remaining binding (EGFR (Homo sapiens, UniProt P00533, del746-750); cell-free assay, competition with immobilised ligand; 1 µM): 92%
CC(=O)N[C@@H](CC(=O)O)C(=O)N[C@@H](Cc1ccccc1)C(=O)N[C@H](C(=O)N[C@@H](CC(=O)O)C(=O)COC(=O)c1c(C)cccc1C)C(C)(C)C — kinact/KI (CASP9; enzyme activity, inhibitor): 8900 M⁻¹ s⁻¹
CC(C)[C@@H]1NC(=O)[C@H](Cc2ccccc2)NC(=O)CSC[C@@H](C(N)=O)NC(=O)[C@H](CCC(=O)O)NC(=O)[C@H](CO)NC(=O)[C@H](Cc2c[nH]c3cccc(Cl)c23)NC(=O)[C@H](C2CCCCC2)NC(=O)[C@H](C(C)C)NC(=O)[C@H](Cc2ccc(O)cc2)NC(=O)[C@H](CC(=O)O)NC(=O)[C@H](Cc2c[nH]c3ccccc23)NC(=O)[C@H](Cc2ccc(N)nc2)NC(=O)[C@H](Cc2c[nH]c3ccc(Cl)cc23)NC(=O)[C@H](CCC(=O)O)NC1=O — remaining activity (Interleukin-1 receptor-like 2 (IL1RL2, Homo sapiens, UniProt Q9HB29); SEAP reporter gene, antagonist; HEK-Blue IL-36R cells; 3.7 µM, 6 h, added: IL-36 0.03 ng/mL; relative to: untreated): -0.5%
CC(=O)N[C@@H](Cc1ccc(O)cc1)C(=O)N[C@@H](CCCCN)C(=O)N[C@@H](C)C(=O)N[C@@H](CC(=O)O)C(=O)COC(=O)c1c(C)cccc1C — kinact/KI (CASP9; enzyme activity, inhibitor): 10800 M⁻¹ s⁻¹
CCN(CC)C(CO)c1cccc2c(C)c(C)oc12 (stereo not shown) — fold change (LPAR1 (Homo sapiens, UniProt Q92633, W210A); G-protein dissociation, agonist, NanoBiT; HEK-293T; 1 nM, W210A mutant; relative to: baseline luminescence): 0.938 and 1.01 and 0.954 and 0.929 and 1.02
